Results of several laboratories.
Compare with care: the assays were run in different laboratories. ± marks the error that the study gave. Values after ≈ are worked out from the molar mass of the structure shown.

Compound = CCCCCCCCCCCCCCCC(=O)N[C@@H](CCCCN)C(=O)N[C@@H](CCCCN)C(=O)N[C@@H](CCCCN)C(=O)N[C@@H](CCCCN)C(N)=O; organism = Escherichia coli; test system = K12; quantity = MBC; result = 64 µg/mL (≈ 83.3 µM)
Compound = CC(=O)[O-].CN1CCN2CCN(CC1)CCN(Cc1ccccc1)CC2.F[P-](F)(F)(F)(F)F.[Cu+2]; organism = Leishmania donovani; assay = parasite growth, resazurin; setting = 72 h, promastigote; quantity = IC50; result = > 20 µM
Compound = CC(=O)Oc1ccc(Cn2ccc(=O)[nH]c2=O)cc1C1OC(c2ccccc2)=NN1C(C)=O (stereo not drawn); organism = varicella-zoster virus; assay = plaque formation, plaque reduction; test system = HEL fibroblasts, TK+ strain OKA; quantity = EC50; result = > 100 µM
Compound = [Cl-].[Cl-].[Mn+2].c1ccc(CN2CCCNCCN(Cc3ccccc3)CCCNCC2)cc1; organism = Leishmania donovani; assay = parasite growth, resazurin; setting = 72 h, amastigote; quantity = IC50; result = > 19 µM
Compound = O=C1/C(=N\NC(=S)NN=Cc2cccs2)c2ccccc2N1Cc1ccccc1; organism = varicella-zoster virus; assay = plaque formation; test system = HEL, TK-; quantity = EC50; result = > 20 µM
Compound = CN1CCNC1=S.CN1CCNC1=S.O=[N+]([O-])[O-].[Ag+].c1ccc(P(c2ccccc2)c2ccccc2)cc1; organism = Staphylococcus epidermidis; test system = MTCC 435, DMSO; setting = 0.1 mL of 50 mg/mL in 8 mm well, 18 to 24 h; quantity = inhibition zone diameter; result = 30 mm
Compound = CC[C@H](C)[C@H](NC(=O)[C@@H]1CCCN1C(=O)[C@H](CCCNC(=N)N)NC(=O)[C@H](CC(=O)O)NC(=O)[C@H](CCCCN)NC(=S)Nc1ccc2c(c1)C(=O)OC21c2ccc(O)cc2Oc2cc(O)ccc21)C(=O)N[C@@H](Cc1ccccc1)C(=O)N[C@@H](CCC(N)=O)C(=O)N[C@@H](CC(C)C)C(=O)N[C@@H](CC(N)=O)C(=O)N[C@H](C(=O)N[C@@H](CO)C(=O)N[C@@H](Cc1ccc(O)cc1)C(=O)N[C@@H](Cc1c[nH]c2ccccc12)C(=O)N[C@@H](CCC(=O)O)C(=O)N[C@@H](CCSC)C(=O)NCC(=O)N[C@@H](C)C(=O)O)[C@@H](C)O; organism = Fusarium solani; setting = 10-fold MIC, 25 °C; quantity = duration of growth inhibition; result = 24 h
Compound = CC(=O)[O-].F[P-](F)(F)(F)(F)F.[Cu+2].c1ccc(CN2CCN3CCN(CC2)CCN(Cc2ccccc2)CC3)cc1; organism = Leishmania donovani; assay = parasite growth, resazurin; setting = 72 h, amastigote; quantity = IC90; result = > 20 µM
Compound = CN1CC(=O)N=C1N.C[C@H](CCC(=O)O)[C@H]1CC[C@H]2[C@@H]3CC[C@@H]4C[C@H](O)CC[C@]4(C)[C@H]3C[C@H](O)[C@]12C; organism = Shigella flexneri; test system = ATCC 9199; setting = 1 mg per disc, 18 to 24 h, 37 °C; quantity = antibacterial activity; result = inactive
Compound = CNC(CC(C)C)C(=O)NC1C(=O)NC(CC(N)=O)C(=O)NC2C(=O)NC3C(=O)NC(C(=O)NC(C(=O)O)c4cc(O)cc(O)c4-c4cc3ccc4O)C(O)c3ccc(c(Cl)c3)Oc3cc2cc(c3OC2OC(CO)C(O)C(O)C2OC2CC(C)(NCc3ccc(-c4ccc(Cl)cc4)cc3)C(O)C(C)O2)Oc2ccc(cc2Cl)C1O (stereo not drawn); organism = Enterococcus faecalis and Enterococcus faecium; test system = VanA BM4166 and ATCC BAA-2317; setting = together with: lipoteichoic acid 100 µg/mL; how to read = baseline: without lipoteichoic acid; quantity = MIC fold increase; result = 2 fold
Compound = COC(=O)C1=CO[C@@H](C)[C@@H]2Cn3ccc4c5ccccc5nc-4c3C[C@H]12; organism = Plasmodium falciparum; assay = parasite growth, [3H]-hypoxanthine incorporation; test system = FCR3 drug-resistant; setting = concentration not given; how to read = baseline: FCR3 over 3D7; quantity = activity fold increase; result = 2 to 6 fold
Compound = CCn1c(-c2ccc(-c3ccc(F)cc3)cc2)c(-c2ccc(-c3ccc(F)cc3)cc2)n(CC)c1=[Se+][Au-][P+](CC)(CC)CC.[Cl-]; organism = Acinetobacter baumannii, carbapenem-resistant; assay = item: IL-6, TNF-alpha; test system = BALB/c mouse, skin wound infection, wound tissue; setting = dose not given, day 14; how to read = baseline: untreated infected; quantity = proinflammatory gene expression; result = decreased
Compound = [O-][N+]1=C(c2ccccc2)C2=NCCN2c2ccccc21; organism = Finegoldia magna; quantity = MIC; result = 0.125 µg/mL (≈ 0.475 µM)
Compound = CCCCn1c2ccccc2c2ccnc(-c3ccccc3Cl)c21; organism = Echinococcus granulosus sensu stricto; test system = protoscoleces; setting = 48 h; quantity = LC50; result = 61.2 ± 5.29 µM
Compound = COc1ccc(-c2oc3ccc(-c4cc(OC)c(OC)c(OC)c4)cc3c2C#CC2(O)CCCCC2)cc1; organism = hepatitis C virus; assay = HCV replicon replication; test system = Huh-7.5.1, genotype 1a transient replicon; setting = 10 µM; how to read = baseline: DMSO; quantity = remaining activity; result = 86.4%
Compound = CC1N=C(CCCCCCCCCCC2=CC(CCCCCCCCCCC3=NC(C)C(O)CC3)C3CCCN3C2)CCC1O (stereo not drawn); organism = Leishmania donovani; test system = amastigotes in THP-1 macrophages; quantity = IC90; result = 2.48 ± 0.62 µg/mL
Compound = CCCCc1ccc(-c2nc(C)c(C(C)=NNC(=N)N)s2)cc1; organism = Staphylococcus aureus; test system = USA400 MRSA; quantity = MBC; result = 1.3 µg/mL (≈ 3.95 µM)
Compound = COc1ccc(-c2oc3ccc(-c4cc(OC)c(OC)c(OC)c4)cc3c2C#CC(C)(C)O)cc1; organism = hepatitis C virus; assay = viral entry, HCV pseudoparticle entry; test system = genotype 1b; setting = 10 µM; how to read = baseline: DMSO; quantity = remaining activity; result = 79.1%
Compound = Nc1ccn(C[C@@H](CO)OCP(=O)(O)OCCCS(=O)(=O)CCCCCCCCCCCCC2CCC2)c(=O)n1; organism = human alphaherpesvirus 2; test system = HFF, G; how to read = baseline: CC50 over EC50; quantity = selectivity index; result = 498
Compound = N#CCC(=O)NNC(=S)Nc1ccc(Cl)c(Cl)c1; organism = Nakaseomyces glabratus; test system = PDR1 L280F mutant; setting = concentration not given, together with: ketoconazole; quantity = combination index; result = < 1
Compound = C[C@H]1[C@H](C)CC[C@]2(CO)CC[C@]3(C)C(=CC[C@@H]4[C@@]5(C)CCCNC(C)(C)[C@@H]5CC[C@]43C)[C@H]12; organism = Human papillomavirus 11; assay = viral replication; test system = C-33 A; how to read = baseline: CC50 over EC50; quantity = selectivity index; result = < 3
Compound = O=S(=O)(CCC(F)(F)F)N[C@H]1CC[C@H](Nc2ncc3c(-c4ccccn4)n[nH]c3n2)CC1; organism = Leishmania donovani; test system = LdBOB drug-selected resistant clones; setting = promastigotes; how to read = baseline: wild type; quantity = resistance fold; result = > 500 fold
Compound = [Cl-].[Cl-].[Mn+2].c1ccc(CN2CCNCCN(Cc3ccccc3)CCNCC2)cc1; organism = Leishmania donovani; assay = parasite growth, resazurin; setting = 72 h, amastigote; quantity = IC50; result = > 20 µM
Compound = [O-][N+]1=C(c2ccccc2)C2=NCCCN2c2ncccc21; organism = Bacteroides fragilis; assay = microbial growth; test system = ATCC25285; quantity = MIC; result = 0.125 µg/mL (≈ 0.449 µM)

Repeated from above:
Compound = COC(=O)C1=CO[C@@H](C)[C@@H]2Cn3ccc4c5ccccc5nc-4c3C[C@H]12; organism = Plasmodium falciparum; assay = parasite growth, [3H]-hypoxanthine incorporation; test system = FCR3 drug-resistant; setting = concentration not given; how to read = baseline: FCR3 over 3D7; quantity = activity fold increase; result = 2 to 6 fold
Compound = Nc1ccn(C[C@@H](CO)OCP(=O)(O)OCCCS(=O)(=O)CCCCCCCCCCCCC2CCC2)c(=O)n1; organism = human alphaherpesvirus 2; test system = HFF, G; how to read = baseline: CC50 over EC50; quantity = selectivity index; result = 498
Compound = [Cl-].[Cl-].[Mn+2].c1ccc(CN2CCCNCCN(Cc3ccccc3)CCCNCC2)cc1; organism = Leishmania donovani; assay = parasite growth, resazurin; setting = 72 h, amastigote; quantity = IC50; result = > 19 µM
